Results from different studies.
A part holds a random share of what one study measured. Substitutions count along the parent as printed.

Study 1 — method: protein binding microarray; form: double-stranded DNA, one strand shown; medium: in vitro; concentration: not given; baseline: not given; direction: higher = stronger binding
Target: Histone acetyltransferase KAT6A, winged helix 2, GST fusion (KAT6A, Homo sapiens, UniProt Q92794, residues 85-181)
Notes: 8-mer, flanks averaged, mean of 2 arrays, mostly near background
Construct (chain): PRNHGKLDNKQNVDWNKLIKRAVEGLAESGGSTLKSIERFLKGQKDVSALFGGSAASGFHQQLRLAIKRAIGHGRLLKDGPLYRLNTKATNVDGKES
Oligonucleotide	E-score
GGGAGATA	-0.0718
CGCCATTC	0.0122
AGCAATTA	0.0387
AACCTTTG	0.0266
AACTGGCA	0.0576
CGCTACCG	-0.00379
AAATCTGA	0.0281
GCGAGACC	0.136

Study 2 — method: RNA Bind-n-Seq; form: RNA; medium: in vitro; concentration: not given; notes: RNA with constant flanks, ends assumed; baseline: input RNA pool; direction: higher = stronger binding
Target: RING finger protein unkempt homolog, zinc fingers 1-6, GST-SBP tag (UNK, Homo sapiens, UniProt Q9C0B0, residues 30-357)
UniProt Q9C0B0, sequence (30-357, looked up): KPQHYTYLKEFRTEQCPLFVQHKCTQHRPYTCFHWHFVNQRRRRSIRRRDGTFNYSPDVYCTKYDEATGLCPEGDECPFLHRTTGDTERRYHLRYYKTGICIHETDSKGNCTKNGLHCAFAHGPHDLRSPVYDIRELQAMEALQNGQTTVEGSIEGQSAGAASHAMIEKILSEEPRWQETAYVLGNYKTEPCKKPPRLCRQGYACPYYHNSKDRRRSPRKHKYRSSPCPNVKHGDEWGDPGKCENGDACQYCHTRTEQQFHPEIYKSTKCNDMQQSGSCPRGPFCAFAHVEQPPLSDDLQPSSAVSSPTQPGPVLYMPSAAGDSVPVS
All sequences stand within: GGGAGUUCUACAGUCCGACGAUC … CAACAGAGGAUUGAGCAUCA
Oligonucleotide	bound/input enrichment [ratio]
GAGAAGUGGUCAGUUGCUAAGGAAGUGGAUUUCCCAGUAGGGGUUUCUGCACCUCACCUGUACCGUCGUUCUGCGCAUGUCCCCCACACAGUCCCCACUGUAUUUACCUGUUCUACUUGU	0.179
UUGGAGGAAGUAGGGCAGGGCCCUUAUCUGGAAAGAAGUUUGGAAACCCUGGGGAGAAAUCCGUUAAAAAGAAGUGGAAUCUUGAUGAGCUGCCUAAAUUUGAGAAGAAUUUUUAUCAAG	0.164
UUAGCUUAUGGCAACCAAGAAAGCAAGCUCAUCAUACUGGCUAGUGGUGGACCCCAAGCUUCCGUAAAUAUAAUGAGGACCUAUACUUACGAAAAACUACUGUGGACCACAAGCAGAGUG	0.258
GUUUUUGGCAAACAUGUCAGCAACGCACCGCUUACUAAACUGCCGAUCAAAUGUUUCCCCGAUUUCAAAGCAGGAGGAUCCCUCUGCCAUAUUCUUGCAGCUGCCUACAAAUUCAAGAGU	0.147
GGAGGUCAGGUUCCUGACACAAACUACAUAUUUAUGGGUGAUUUUGUAGACAGAGGUUACUACCGUUUGGAGACCUUCACUUAUCUUCUUGCACUAAAGGCUAAGUGGCCUGACCGUAUU	0.212

Study 3 — target: CCND2, cyclin fold, Cln2 fusion (human); method: yeast growth competition, sequencing; medium: yeast; notes: weak parent motif; baseline: not given; direction: higher = stronger binding
Starting sequence: WEE1 docking peptide (human); HKTFRKLRLFDTP; partner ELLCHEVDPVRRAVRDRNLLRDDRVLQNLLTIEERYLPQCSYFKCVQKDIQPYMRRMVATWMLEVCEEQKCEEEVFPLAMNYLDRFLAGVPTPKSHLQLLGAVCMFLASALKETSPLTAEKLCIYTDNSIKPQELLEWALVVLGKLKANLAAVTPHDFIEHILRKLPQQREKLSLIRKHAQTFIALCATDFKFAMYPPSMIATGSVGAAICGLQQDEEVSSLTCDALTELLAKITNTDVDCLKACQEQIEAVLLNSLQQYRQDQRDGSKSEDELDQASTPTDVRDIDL
Variant	normalised enrichment score
R5C	-0.629
H1L	-0.351
T12P	-0.318
L7Y	-0.0257
D11W	0.0417

Other studies, line by line
Molecule	target	assay	test system	setting	how to read	quantity	result
PhoQ, residues 284 288 289 292 302 303 ASTSDA	PhoP, residues 12 14 15 18 19 GHCSL (Escherichia coli, UniProt P23836)	Sort-seq, measured: YFP reporter	E. coli	PhoQ-PhoP variant library, added: 10 µM Mg2+	baseline: high Mg2+ state, higher = stronger signaling	fold induction	7.51
